# Results gathered from unrelated publications.
# Compare with care: the assays were run in different laboratories. Several values in a cell are separate wells, animals, samples, runs or records. ± marks the error that the study gave.
# pyrD: Dihydroorotate dehydrogenase (quinone) (pyrD, Acinetobacter baumannii, UniProt B7GZW7)
# SLC6A3: Sodium-dependent dopamine transporter (SLC6A3, Homo sapiens, UniProt Q01959)
# AKR1B1: Aldo-keto reductase family 1 member B1 (AKR1B1, Homo sapiens, UniProt P15121)
# Kir3.1/Kir3.4: Kir3.1/Kir3.4 (Homo sapiens, UniProt P48544+P48549)
Structure (SMILES),target,assay,test system,setting,scale,endpoint,value
CC1(C)CC[C@]2(C(=O)O)CC[C@]3(C)C(=CC[C@@H]4[C@@]5(C)C[C@@H](O)[C@H](OC(=O)/C=C/c6ccc(O)cc6)C(C)(C)[C@@H]5CC[C@]43C)[C@@H]2C1 (relative stereo),"Presenilin-1, N-terminal fragment (PSEN1, Homo sapiens, UniProt P49768)","S1 subsite probe binding, competitor, item: PS1 labelled by GY-4",HeLa membranes,,,photoaffinity labelling,inhibited
CNc1cc(Nc2ccc(C(F)(F)F)cc2)n2ncnc2n1,pyrD,"enzyme activity, inhibitor, colorimetric HTS, item: DCIP reduction",,3 µM,direction not given,robust Z-score,20.9
C[C@H](CCC(C)(C)O)[C@H]1CC[C@H]2[C@@H]3CC=C4C[C@@](C)(O)CC[C@]4(C)[C@H]3CC[C@]12C,"Glutamate NMDA receptor; GRIN1/GRIN2B (GRIN1/GRIN2B, Homo sapiens, UniProt Q05586+Q13224, F563A)","positive allosteric modulator, two-electrode voltage clamp",Xenopus oocytes expressing GluN2B-F563A,"10 µM, 0.02% cremophor, added: 100 µM glutamate and glycine",reference: without compound,current response,199 ± 15%
Nc1ncnc2c1ncn2[C@@H]1O[C@H](COP(=O)(O)CP(=O)(O)OP(=O)(O)O)[C@@H](O)[C@H]1O,"P2X purinoceptor 1 (P2RX1, Homo sapiens, UniProt P51575, R139A)",calcium influx,,1 µM,reference: ionomycin response,calcium influx,94.3% and 83.7% and 88.7%
CCOC(=O)[C@@]12C[C@@H]1[C@@H](n1cnc3c(NCCCCCc4ccccc4)nc(C#Cc4ccc(Cl)s4)nc31)[C@H](O)[C@@H]2O,SLC6A3,inhibitor,HEK293,"concentration not given, added: [3H]dopamine 20 nM",,dopamine uptake,no effect
N[C@@H](Cc1ccc(O)cc1)C(=O)O,bacterial tyrosinase,substrate,,,,Km,250 µM
Cc1cc2c(cc1N1C(=O)c3cccc4c(Cl)ccc(c34)C1=O)n(C)c(=O)n2C,"CREBBP (Homo sapiens, UniProt Q92793)",,,10 µM,,delta Tm,1.3 °C
C=CC(=O)N1CCN(c2nc(OC[C@@H]3CCCN3C)nc3c(F)c(-c4nc(N)cc(C)c4C(F)(F)F)c(Cl)cc23)[C@@H](C)C1,"GTPase KRas, GDP-bound (KRAS, Homo sapiens, UniProt P01116, A146T)","binding, surface plasmon resonance",,,,association rate constant,131000 ± 1500 M⁻¹ s⁻¹
NS(=O)(=O)NCCNc1nonc1C(=NO)Nc1ccc(F)c(Br)c1,"IDO1 (Homo sapiens, UniProt P14902)","thermal stability, nanoDSF",,"50 µM, 1% DMSO, no DTT, added: unlabelled protein 2.5 µM",,ΔTi,4.2 °C
O=C(O)C1CCCNC1 (stereo not shown),"SLC6A6 (Homo sapiens, UniProt P31641, G62A)","binding, microscale thermophoresis",,"244 nM, room temperature, added: 50 nM labelled protein",higher = more binding,normalised MST signal,-0.0668
C[C@]12C[C@H](O)[C@H]3[C@@H](CCC4=CC(=O)CC[C@@]43C)[C@@H]1CC[C@@H]2C(=O)CO,"CYP11B1 (Homo sapiens, UniProt P15538, V320A)",stopped-flow,nanodiscs,added: excess cyclodextrin,,koff,> 5 s⁻¹
CCc1cnn2c(NCc3ccc[n+]([O-])c3)cc(N3CCCC[C@H]3CCO)nc12,"BRD4 (Homo sapiens, UniProt O60885)","19F NMR, item: tyrosine 97",,186 µM,reference: free protein,chemical shift change,-0.219 ppm
C=CC(=O)N1CCC[C@@H](n2nc(-c3ccc(Oc4ccccc4)cc3)c3c(N)ncnc32)C1,"INSRR (Homo sapiens, UniProt P14616)",,,10 µM,,remaining activity,114%
CCC1(O)CCCN(C(=O)c2ccc(-c3ccc(F)c(NC(=O)CCl)c3)cc2)C1 (stereo not shown),"DNA dC->dU-editing enzyme APOBEC-3A (Homo sapiens, UniProt P31941)","covalent modifier, intact protein mass spectrometry, item: adduct +26691 Da",,"500 µM, 3 h, 20-fold molar excess",,protein adduct,53%
C[C@H](NCc1ccc(OCc2cccc(F)c2)cc1)C(N)=O,"MAOB (Homo sapiens, UniProt P27338)","enzyme activity, reversible inhibitor",,"concentration not given, 15 min pre-incubation",,activity recovery time,48 min
CC1=NN(c2ccc(Cl)cc2)C(=O)C1=NNc1ccc(S(N)(=O)=O)cc1,bovine α-glucosidase,"enzyme activity, inhibitor, glucose oxidase",,"100 µg/mL, added: maltose",,inhibition,39.3%
CCOc1nc2nc(C)cc(Nc3cc(F)c(C(F)(F)F)c(F)c3)n2n1,pyrD,"enzyme activity, inhibitor, colorimetric HTS, item: DCIP reduction",,3 µM,direction not given,robust Z-score,18.7
CN(C)C(=O)C(CCN1CCC(O)(c2ccc(Cl)cc2)CC1)(c1ccccc1)c1ccccc1,"Calcium-activated potassium channel subunit alpha-1, with LRRC26 γ1 subunit (KCNMA1, Homo sapiens, UniProt Q12791)","BK current, inside-out patch clamp",excised membrane patch,"30 µM, γ1 subunit coexpressed, added: nominally 0 Ca2+ cytosolic",,effective gating valence,1.18 elementary charges
c1coc(-c2n[nH]cc2-c2ccnc3ccccc23)c1,"Cyclin-dependent kinase 1 (CDC28, Candida albicans, UniProt P43063)","kinase binding, MIB/MS competition",Candida albicans lysate,1 µM,"reference: DMSO, negative = stronger binding",log2 fold change,-0.29
CCN1CCC[C@H]1CNC(=O)c1c(O)c(Cl)cc(Cl)c1OC,"Probable G-protein coupled receptor 141 (GPR141, Homo sapiens, UniProt Q7Z602)","β-arrestin recruitment, TANGO luminescence, item: GPR141",,concentration not given,reference: basal luminescence,log2 fold change,0.475
COc1cc2ccc(=O)oc2cc1O,"uncharacterized protein (Solanum tuberosum, UniProt M0ZZL3)",enzyme activity,,,,Hill coefficient,0.5 ± 0.1
CCS(=O)(=O)N1CC(CC#N)(n2cc(-c3ncnc4[nH]ccc34)cn2)C1,"ORM1 (Homo sapiens, UniProt P02763)",modified Stern-Volmer,,303 K,,fraction of accessible fluorescence,0.67
CC1=NCCNC(=O)C1=NNc1ccc(S(N)(=O)=O)cc1,bovine α-glucosidase,"enzyme activity, inhibitor, glucose oxidase",,"100 µg/mL, added: maltose",,inhibition,46%
O=C(/C=C/c1ccc(O)c(O)c1)O[C@H](Cc1ccc(O)c(O)c1)C(=O)O,"Peroxiredoxin-1 (PRDX1, Homo sapiens, UniProt Q06830)","thermal stability, differential scanning fluorimetry",,800 µM,reference: no compound,delta Tm,15.1 °C
Cc1ccc(/C=C2\SC(=O)N(Cc3nc4ccccc4s3)C2=O)cc1,AKR1B1,"enzyme activity, inhibitor",,,,log IC50,2.47 log nM
Nc1nc2c(ncn2[C@@H]2O[C@H](COP(=O)(O)O)[C@@H](O)[C@H]2O)c(=O)[nH]1,"GUK1 (Homo sapiens, UniProt Q16774, R44A)","enzyme activity, NADH-coupled",,2000 µM,,reaction rate,-0.648 s⁻¹ and -1.27 s⁻¹ and -0.337 s⁻¹
O=c1nc(SCc2cc(F)cc(C(F)(F)F)c2)nc(SCc2ccc3nc(Cl)ccc3c2)[nH]1,"TOP2A (Homo sapiens, UniProt P11388)",ATPase activity,,"15.6 µM, added: ATP 0.05 mM",,ATP hydrolysis rate,0.342 µM/min and 0.384 µM/min
CC(=O)N[C@H]1C(OCCOP(=O)(O)OC[C@H]2O[C@@H](n3ccc(=O)[nH]c3=O)[C@H](O)[C@@H]2O)O[C@H](CO)[C@@H](O)[C@@H]1O (stereo partly shown),"MGAT3 (Homo sapiens, UniProt Q09327)","enzyme activity, activator, HPLC",,"2500 µM, added: UDP-GlcNAc 0.5 mM",reference: no compound,relative activity,1.44
CCN(CCO)CCCC(C)Nc1ccnc2cc(Cl)ccc12 (stereo not shown),"SCN5A (Homo sapiens, UniProt Q14524)",sodium current,,100 µM,,activation V1/2,-48.2 ± 4 mV
NC/C(=C\F)COc1cccc(Cn2c(=S)[nH]c(=O)c3[nH]cnc32)c1,"AOC3 (Homo sapiens, UniProt Q16853)","enzyme activity, Amplex Red H2O2 production",,30 µM,,activity response,100%
N[C@@H]1CC[C@@H](c2ccc(Cl)c(Cl)c2)c2ccccc21,SLC6A3,dopamine uptake,,"1e-05 µM, 0.03333 h, added: [3H]dopamine",reference: no inhibitor,remaining activity,113%
CCC(F)(F)c1nc2nc(C)cc(Nc3ccc(C(F)(F)F)cc3)n2n1,pyrD,"enzyme activity, inhibitor, colorimetric HTS, item: DCIP reduction",,3 µM,direction not given,robust Z-score,19
COc1cc(F)cc2c(N3CCN(c4ccccc4F)CC3)c(C#N)nnc12,"Grm7 (Rattus norvegicus, UniProt P35400)",positive allosteric modulator,cell-based,added: L-AP4 EC20,reference: L-AP4 maximum,maximal response,104%
NCCCC(=O)O,"SLC6A6 (Homo sapiens, UniProt P31641, L306A)","binding, microscale thermophoresis",,"31.3 µM, room temperature, added: 50 nM labelled protein",higher = more binding,normalised MST signal,0.00394
Cc1cc(Nc2ccc(C(F)(F)F)c(F)c2)n2ncnc2n1,pyrD,"enzyme activity, inhibitor, colorimetric HTS, item: DCIP reduction",,3 µM,direction not given,robust Z-score,20.2
FC(F)(F)c1cccc(-c2n[nH]c(=S)o2)c1,"P2X purinoceptor 4 (P2RX4, Homo sapiens, UniProt Q99571)",calcium mobilization,MCF7 stably transfected,"100 µM, added: ATP 100 µM",,fluorescence increase,81.4 ± 0.77%
Cc1nn(C2CCS(=O)(=O)C2)c(C)c1NC(=O)COc1ccc(C(F)(F)F)cc1C(F)(F)F (stereo not shown),Kir3.1/Kir3.4,"activator, thallium flux",HEK293,concentration not given,,activity,inactive
Nc1ncnc2c1ncn2[C@@H]1O[C@H](CO[P@](=O)(O)O[P@](=O)(O)O[P@@](=O)(O)S)[C@@H](O)[C@H]1O,"GUK1 (Homo sapiens, UniProt Q16774, S18A)","binding, ITC",,added: GMP,,-TΔS,1.13 kcal/mol
CC(C)C[C@H](N)C(=O)Nc1ccc2ccccc2c1,rat aminopeptidase III,substrate,,,,Km,1 µM
O=C1S/C(=C\c2ccc(F)cc2)C(=O)N1Cc1nc2ccccc2s1,AKR1B1,"enzyme activity, inhibitor",,,,log IC50,2.52 log nM
COC(=O)c1ccc(NC(=O)COc2cccc(Cl)c2Cl)s1,Kir3.1/Kir3.4,"activator, thallium flux",HEK293,concentration not given,,activity,inactive
O=C(NO)c1ccc(CN2CCCCc3ccccc32)c(F)c1,SLC6A3,"radioligand binding, radioligand displacement",,"10 µM, mean of replicates",,inhibition,-51.3%
COCCC(=O)N1CCC(Oc2ccccc2)C1 (stereo not shown),"Protein transport protein Sec31A (SEC31A, Homo sapiens, UniProt O94979)","binding, affinity selection mass spectrometry",,,reference: other proteins in batch,fold enrichment,1
CCCCCCc1ccc([C@H]2CC[C@H]([N+](C)(C)CCC)CC2)cc1.[I-],"SPHK2 (Homo sapiens, UniProt Q9NRA0)","inhibitor, radiometric flash-plate",cell lysate,added: sphingosine 5 µM,,Ki/Km ratio,8.6
O=C(COc1ccc(Cl)cc1Cl)Nc1nn(-c2ccccc2)c2cccnc12,Kir3.1/Kir3.4,"activator, thallium flux",HEK293,concentration not given,,activity,inactive
C=CC(=O)N1CCC(COCC(=O)N2CCN(c3nc(-c4cnc(N)nc4C(F)F)nc(N4CCOC[C@@H]4C)n3)CC2)CC1,"Tyrosine-protein kinase ABL1, phosphorylated (ABL1, Homo sapiens, UniProt P00519, Y253F)",KINOMEscan,,1 µM,,remaining binding,76%

# Excerpt of the above:
Structure (SMILES),target,assay,test system,setting,scale,endpoint,value
O=C1S/C(=C\c2ccc(F)cc2)C(=O)N1Cc1nc2ccccc2s1,AKR1B1,"enzyme activity, inhibitor",,,,log IC50,2.52 log nM
COC(=O)c1ccc(NC(=O)COc2cccc(Cl)c2Cl)s1,Kir3.1/Kir3.4,"activator, thallium flux",HEK293,concentration not given,,activity,inactive
O=C(NO)c1ccc(CN2CCCCc3ccccc32)c(F)c1,SLC6A3,"radioligand binding, radioligand displacement",,"10 µM, mean of replicates",,inhibition,-51.3%
